Published values of several laboratories.
Lines come from different studies, so protocols differ. Numbers after ± are the reported error.
Chain of UniProt O60656 (whole entry, looked up): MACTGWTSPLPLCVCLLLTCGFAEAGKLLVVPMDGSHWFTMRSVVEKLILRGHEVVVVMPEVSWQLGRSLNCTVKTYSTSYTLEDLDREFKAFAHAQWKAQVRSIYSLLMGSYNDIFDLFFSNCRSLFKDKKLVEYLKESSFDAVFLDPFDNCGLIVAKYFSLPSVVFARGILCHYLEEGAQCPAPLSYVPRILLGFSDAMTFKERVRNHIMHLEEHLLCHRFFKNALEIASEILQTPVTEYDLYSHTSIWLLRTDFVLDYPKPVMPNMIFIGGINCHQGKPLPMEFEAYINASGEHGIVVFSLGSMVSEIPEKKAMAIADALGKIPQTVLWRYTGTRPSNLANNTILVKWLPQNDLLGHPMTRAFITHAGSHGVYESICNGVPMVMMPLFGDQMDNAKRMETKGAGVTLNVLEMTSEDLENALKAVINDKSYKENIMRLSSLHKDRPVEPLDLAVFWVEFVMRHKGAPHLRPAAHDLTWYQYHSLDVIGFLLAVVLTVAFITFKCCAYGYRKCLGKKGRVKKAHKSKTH

O=CCCCC=O — result for “maximal peptide depletion”: -119% (cysteine peptide Ac-RFAACAA-COOH; DPRA RapidFire-MS/MS; 24 h, pH 7.5, added: 5.0 µM cysteine peptide).
O=C1NC2(CCCCC2)c2[nH]c(=S)nc(-c3ccccc3)c21 has an inhibition of 82.6% (human erythrocytes; hypotonicity-induced hemolysis; 600 µg/mL, 1 h).
CCC/C=C/C=O — result for “maximal peptide depletion”: -28.1% (cysteine peptide Ac-RFAACAA-COOH; DPRA RapidFire-MS/MS; 24 h, pH 7.5, added: 5.0 µM cysteine peptide).
Under “minimal effective dose”, Cc1c(C)c2c(c(C)c1OCc1ccccc1)CCC(C)(C(=O)NN=C1C(=O)Nc3ccc(Br)cc31)O2 (stereo not shown) is recorded as 100 mg/kg (seizure protection; male CF-1 mice; intraperitoneal, 0.5 h, added: pentylenetetrazole 60 mg/kg subcutaneous).
COc1c(Cl)c(C)c(C=O)c(O)c1C/C=C(C)/C=C/[C@@]1(C)[C@H](C)CCC(=O)[C@@H]1C has an IC50 of 9.5 µM (Wickerhamomyces anomalus; O2 uptake, inhibitor; mitochondria; added: NADH 1 mM).
Cc1c(C)c2c(c(C)c1OCc1ccccc1)CCC(C)(C(=O)NN=C1C(=O)N(C)c3ccc(Cl)cc31)O2 (stereo not shown): “minimal effective dose” 100 mg/kg (seizure protection; male CF-1 mice; intraperitoneal, 4 h, added: pentylenetetrazole 60 mg/kg subcutaneous).
`IINFEKL` has a Hill coefficient of 2.6 (ERAP1 human wild type; activator; peptide; 100 µM, pH 8.0, 27 °C, added: L-AMC substrate).
O=C(OOC(=O)c1ccccc1)c1ccccc1 has an IC50 of 95.3 µM (cysteine peptide Ac-RFAACAA-COOH; peptide depletion, DPRA RapidFire-MS/MS; 24 h, pH 7.5, room temperature, added: 5.0 µM cysteine peptide).
CC(C)(N)C(=O)O has a Ki of 2000 µM (Ehrlich ascites cells, mouse; methionine uptake, competitive inhibitor; added: Na+ 107 mEq/L).
For Cc1c(C)c2c(c(C)c1OCc1ccccc1)CCC(C)(C(=O)NN=C1C(=O)Nc3ccc(F)cc31)O2 (stereo not shown), “minimal effective dose” read 300 mg/kg (seizure protection; male CF-1 mice; intraperitoneal, 0.5 h, added: pentylenetetrazole 60 mg/kg subcutaneous).
`UGT1A9 (Homo sapiens, UniProt O60656)` gave a Vmax/Km of 60 µL/min/mg (O=c1c(O)c(-c2ccc(O)cc2O)oc2cc(O)cc(O)c12; steady-state kinetics; pH 7.4, 37 °C).
C[C@H]1c2cccc(O)c2C(=O)C2=C(O)[C@]3(O)C(=O)C(C(N)=O)=C(O)[C@@H](N(C)C)[C@@H]3[C@@H](O)[C@@H]21 has an FIC index of 1 (Staphylococcus aureus; checkerboard; ATCC 25923; added: magainin II).
Under “minimal effective dose”, COc1c(C)c(C)c2c(c1C)CCC(C)(C(=O)NN=C1C(=O)Nc3ccccc31)O2 (stereo not shown) is recorded as 300 mg/kg (seizure protection; male CF-1 mice; intraperitoneal, 0.5 h, added: maximal electroshock).
O=C1CCC(=O)C2(CCCCC2)N1 has an inhibition of 73.2% (human erythrocytes; hypotonicity-induced hemolysis; 600 µg/mL, 1 h).
Under “maximal peptide depletion”, CCOC(=O)/C=C\C(=O)OCC is recorded as -108% (cysteine peptide Ac-RFAACAA-COOH; DPRA RapidFire-MS/MS; 24 h, pH 7.5, added: 5.0 µM cysteine peptide).
The inhibition of O=C1NC2(CCCCC2)c2nc3c(c(-c4ccccc4)c21)CCCC3 is reported as 96% (human erythrocytes; hypotonicity-induced hemolysis; 1000 µg/mL, 1 h).
Cc1c(C)c2c(c(C)c1O)CCC(C)(C(=O)NN=C1C(=O)Nc3ccccc31)O2 (stereo not shown) — result for “minimal effective dose”: 300 mg/kg (seizure protection; male CF-1 mice; intraperitoneal, 4 h, added: pentylenetetrazole 60 mg/kg subcutaneous).
O=C(O)c1ccc2c(c1)C(=O)OC2=O — result for IC50: “inactive” (cysteine peptide Ac-RFAACAA-COOH; peptide depletion, DPRA RapidFire-MS/MS; 24 h, pH 7.5, room temperature, added: 5.0 µM cysteine peptide).
For CC(/C=C/[C@@]1(C)[C@H](C)CCC(=O)[C@@H]1C)=C\Cc1c(O)c(Cl)c(C)c(C=O)c1O, the IC50 was 0.043 µM (Wickerhamomyces anomalus; O2 uptake, inhibitor; mitochondria; added: glycerol 3-phosphate 20 mM).
Under “maximal peptide depletion”, Nc1cccc(O)c1 is recorded as -26.4% (cysteine peptide Ac-RFAACAA-COOH; DPRA RapidFire-MS/MS; 24 h, pH 7.5, added: 5.0 µM cysteine peptide).
Under “double cytokine producers”, `SIYNFEKL` is recorded as 17.6% (OT-I CD8+ T cells; measured: IL-2, IFN-gamma, TNF-alpha; peptide; primed 5 d, OVA257 100 ng/mL restimulation, added: 20 ng/mL TGF-beta1 from day 2).
O=C1OC(=O)c2ccccc21 — result for peptide depletion: “inactive” (cysteine peptide Ac-RFAACAA-COOH; DPRA RapidFire-MS/MS; 24 h, pH 7.5, added: 5.0 µM cysteine peptide).
For O=C1NC(=O)C(c2ccccc2)(c2ccccc2)N1, “minimal effective dose” read 30 mg/kg (seizure protection; male CF-1 mice; intraperitoneal, 0.5 h, added: maximal electroshock).
For `SIIVFEKL`, “double cytokine producers” read 7.26% (OT-I CD8+ T cells; measured: IL-2, IFN-gamma, TNF-alpha; peptide; primed 5 d, OVA257 100 ng/mL restimulation, added: no TGF-beta1).
Cc1c(C)c2c(c(C)c1O)CCC(C)(C(=O)NN=C1C(=O)N(C)c3ccccc31)O2 (stereo not shown) — result for “minimal effective dose”: 100 mg/kg (seizure protection; male CF-1 mice; intraperitoneal, 4 h, added: pentylenetetrazole 60 mg/kg subcutaneous).
CCCOC(=O)c1ccc(O)cc1 — result for IC50: “inactive” (cysteine peptide Ac-RFAACAA-COOH; peptide depletion, DPRA RapidFire-MS/MS; 24 h, pH 7.5, room temperature, added: 5.0 µM cysteine peptide).
Under “K1/2 of L-AMC”, `IINFEKE` is recorded as 0.3 ± 0.07 mM (ERAP1 human L734R; activator; peptide; 100 µM, pH 8.0, 27 °C, added: L-AMC substrate).
Cc1c(C)c2c(c(C)c1O)CCC(C)(C(=O)NN=C1C(=O)Nc3ccc(F)cc31)O2 (stereo not shown) — result for “minimal effective dose”: > 300 mg/kg (seizure protection; male CF-1 mice; intraperitoneal, 4 h, added: maximal electroshock).

Some of these lines once more:
The inhibition of O=C1NC2(CCCCC2)c2nc3c(c(-c4ccccc4)c21)CCCC3 is reported as 96% (human erythrocytes; hypotonicity-induced hemolysis; 1000 µg/mL, 1 h).
Cc1c(C)c2c(c(C)c1O)CCC(C)(C(=O)NN=C1C(=O)Nc3ccccc31)O2 (stereo not shown) — result for “minimal effective dose”: 300 mg/kg (seizure protection; male CF-1 mice; intraperitoneal, 4 h, added: pentylenetetrazole 60 mg/kg subcutaneous).
O=C(O)c1ccc2c(c1)C(=O)OC2=O — result for IC50: “inactive” (cysteine peptide Ac-RFAACAA-COOH; peptide depletion, DPRA RapidFire-MS/MS; 24 h, pH 7.5, room temperature, added: 5.0 µM cysteine peptide).
